# Measurements pooled from the literature.
# Each line is one published result; not all experiments were run side by side. ± gives the spread as reported.
# Astl: Astacin-like metalloendopeptidase (Astl, Mus musculus, UniProt Q6HA09)
# GLAA: Glucoamylase (GLAA, Aspergillus niger, UniProt P69328)
# Calpain-2 catalytic subunit: Calpain-2 catalytic subunit (Homo sapiens, UniProt P17655)
# Na(+)/H(+) exchange regulatory cofactor NHE-RF2 PDZ domain 2: Na(+)/H(+) exchange regulatory cofactor NHE-RF2, PDZ domain 2 (Homo sapiens, UniProt Q15599)
# XIAP BIR3: E3 ubiquitin-protein ligase XIAP, BIR3 (XIAP, Homo sapiens, UniProt P98170)
# bglA: bglA (Thermotoga maritima, UniProt Q08638)
# CAPN1: Calpain-1 catalytic subunit (CAPN1, Homo sapiens, UniProt P07384)
# Tspo: Translocator protein (Tspo, Rattus norvegicus, UniProt P16257)
SMILES,target,test,test system,setting,Ki
COc1c(Cl)ccc(CN(CCC(=O)NO)Cc2ccc(Cl)c(OC)c2F)c1F,Astl,"enzyme activity, inhibitor, fluorogenic",,"pH 7.4, 37 °C, apparent Ki, Morrison equation, together with: 25 µM substrate",1.13 ± 0.09 µM
CCCCCCCC/N=C1/SC[C@@H]2[C@@H](O)[C@H](O)[C@@H](O)[C@@H](CCC)N12,GLAA,"enzyme activity, competitive inhibitor",,"optimal pH, together with: p-nitrophenyl glycopyranoside",> 2000 µM
CC(C)C[C@H](NC(=O)[C@H](Cc1ccccc1)NC(=O)[C@H](CO)NC(=O)[C@H](CCCNC(=N)N)NC(=O)[C@@H]1CCCN1)C(=O)N[C@H](C(=O)N[C@@H](CCCNC(=N)N)C(=O)N[C@@H](CCCCN)C(=O)N1CCC[C@H]1C(=O)N[C@@H](CO)C(=O)N[C@@H](CC(=O)O)C(=O)N1CCC[C@H]1C(=O)N[C@@H](CC(N)=O)C(=O)N[C@@H](CCCNC(=N)N)C(=O)N[C@@H](CCCCN)C(=O)N1CCC[C@H]1C(=O)N[C@@H](CC(N)=O)C(=O)N[C@@H](Cc1ccc(O)cc1)C(=O)N[C@@H](CO)C(=O)N[C@@H](CCC(=O)O)C(=O)O)C(C)C,"Lysine-specific histone demethylase 1B (Mus musculus, UniProt Q8CIG3)","enzyme activity, inhibitor",,pH 7.5,2.22 µM
CC(C)C[C@@H]1NC(=O)[C@H](C)NC(=O)[C@H](CC2CCN(C(=N)N)CC2)NC(=O)[C@H](CO)NC(=O)[C@H](CCCNC(=N)N)NC(=O)[C@H](CCCCN)NC(=O)[C@@H]2CCCN2C(=O)[C@@H](N)CSSC[C@@H](C(=O)O)NC(=O)[C@H](Cc2ccccc2)NC1=O,"Plasma kallikrein (Klkb1, Mus musculus, UniProt P26262)","enzyme activity, inhibitor, absorbance",,pH 7.4,0.043 µM
N=C(N)NCCCC(=O)NCC1(Nc2ccccc2)CCN(Cc2ccccc2)CC1,"Neuropeptide FF receptor 2 (Homo sapiens, UniProt Q9Y5X5)",cell-free assay,,,2.68 µM
CCC(NC(=O)C(CC(C)C)NC(=O)CCc1ccccc1)C(=O)C(=O)NCc1cccc(OC)c1 (centres unmarked),Calpain-2 catalytic subunit,"enzyme activity, inhibitor, fluorescence",,,0.054 µM
CNc1ccccc1C(=O)O[C@H]1[C@@H](O)[C@H](n2ccc(N)nc2=O)O[C@@H]1COP(=O)(O)OP(=O)(O)O,"ADCY1 (Bos taurus, UniProt P19754)","adenylyl cyclase activity, inhibitor",Sf9 membranes,"together with: 5 mM MnCl2, 100 µM forskolin",0.58 ± 0.01 µM
CSCC[C@H](NC(=O)[C@@H](N)CS)C(=O)N[C@@H](CCC(N)=O)C(=O)N[C@H](C(=O)N[C@@H](CO)C(=O)N[C@@H](CCCCN)C(=O)N[C@@H](CC(C)C)C(=O)O)[C@@H](C)O,Na(+)/H(+) exchange regulatory cofactor NHE-RF2 PDZ domain 2,"binding to PDZ2 domain, inhibitor, fluorescence polarization",,,10 ± 0.6 µM
CC1(C)NC(N)=Nc2nc3cc(Cl)c(Cl)cc3n21,"DHFR (Homo sapiens, UniProt P00374)",inhibitor,,,0.663 µM
CCN(CC)c1ccc(CNC(=O)[C@@H]2CC[C@@H]3CCN(C(=O)Cc4ccccc4)C[C@H](NC(=O)[C@H](C)NC)C(=O)N32)cc1,XIAP BIR3,"ligand displacement, FP",,,42.5 µM
CCC[C@H]1N[C@H](CO)[C@@H](O)[C@H](O)[C@H]1O,bglA,competitive inhibitor,,together with: p-nitrophenyl glucopyranoside,657 ± 65 µM
CC(=O)c1ccc(NC(=O)Cn2c(C)cc(=O)n3nc(-c4ccc(Cl)cc4)nc23)cc1,"CNR1 (Homo sapiens, UniProt P21554)",binding,,,no binding
CN(C)[C@@H](CNC(=O)NC[C@H]1Cc2ccccc21)Cc1ccccc1,"DRD2 (Homo sapiens, UniProt P14416)","ligand displacement, radioligand",,,> 10 µM
N#Cc1ccc(CN(CCC(=O)NO)Cc2ccc(C#N)cc2)cc1,Astl,"enzyme activity, inhibitor, fluorogenic",,"pH 7.4, 37 °C, apparent Ki, Morrison equation, together with: 25 µM substrate",1.24 ± 0.37 µM
CCC(NC(=O)C(CC(C)C)NC(=O)Nc1ccncc1)C(=O)C(=O)NCc1cc(OC)cc(OC)c1 (centres unmarked),Calpain-2 catalytic subunit,"enzyme activity, inhibitor, fluorescence",,,0.139 µM
C#CCOC(=O)[C@@]1(C)C=C(C(=O)OC(C)(C)C)C(=O)CC1,"MAPK1 (Homo sapiens, UniProt P28482)","ligand displacement, FP",,,3.8 µM
CNCc1c(OCc2ccc(F)cc2)ccc2ccccc12,"SLC6A4 (Homo sapiens, UniProt P31645)","ligand displacement, radioligand",,cell membranes,1.03 µM
CCCCCCCC[C@@H]1[C@H](O)[C@@H](O)[C@H](O)[C@@H](CO)N1C(=S)NCCCC,GLAA,"enzyme activity, inhibitor",,,92 µM
C/C=C/C[C@@H](C)[C@@H](O)[C@H]1C(=O)N[C@@H](CC)C(=O)N(C)C(Cc2ccc(C(=O)NCCCCCCNC(=O)c3ccc(-c4c5ccc(=[N+](C)C)cc-5oc5cc(N(C)C)ccc45)cc3)cc2)C(=O)N(C)[C@@H](CC(C)C)C(=O)N[C@@H](C(C)C)C(=O)N(C)[C@@H](CC(C)C)C(=O)N[C@@H](C)C(=O)N[C@H](C)C(=O)N(C)[C@@H](CC(C)C)C(=O)N(C)[C@@H](CC(C)C)C(=O)N(C)[C@@H](C(C)C)C(=O)N1C (some centres unmarked),"Peptidyl-prolyl cis-trans isomerase F, mitochondrial (Ppif, Rattus norvegicus, UniProt P29117)","PPIase activity, inhibitor",,"pH 7.5, 15 °C",0.202 µM
CC[C@H](C)[C@H](NC(=O)[C@@H](NC(=O)[C@H](CO)NC(=O)[C@@H](NC(=O)[C@H](CCC(N)=O)NC(=O)[C@H](Cc1c[nH]c2ccccc12)NC(=O)[C@@H](N)CS)[C@@H](C)O)[C@@H](C)CC)C(=O)O,Na(+)/H(+) exchange regulatory cofactor NHE-RF2 PDZ domain 2,"binding to PDZ2 domain, inhibitor, fluorescence polarization",,,246 ± 186 µM
CCC(NC(=O)C(CC(C)C)NC(=O)NCc1ccccc1)C(=O)C(=O)NCc1cccc(OC)c1 (centres unmarked),CAPN1,"enzyme activity, inhibitor, fluorescence",,,0.077 µM
OC[C@@H]1[C@@H](O)[C@H](O)[C@@H](O)c2nccn21,bglA,"enzyme activity, inhibitor",,pH 6.8,0.026 µM
CNC(=O)C1CCN(c2ccccc2NC(=O)c2ccc(-c3cccc(O)c3)c(C)c2)CC1,"EPHA2 (Homo sapiens, UniProt P29317)","enzyme activity, inhibitor",,,0.117 µM
CC(Oc1cc(-c2ccccc2)nc2ncccc12)C(=O)N(C)c1ccccc1 (centres unmarked),Tspo,"binding, radioligand displacement",rat brain homogenate,,0.00029 ± 3e-05 µM
CCc1nc2ccc(N(Cc3ccccc3)C(=O)c3cccs3)cc2c(=O)n1Cc1ccc(-c2ccccc2-c2nn[nH]n2)cc1,"AGTR1 (Homo sapiens, UniProt P30556)","ligand displacement, radioligand",,,0.18 µM
CC(Oc1cc(-c2ccccc2)nc2cccnc12)C(=O)N(C)c1ccccc1 (centres unmarked),Tspo,"binding, radioligand displacement",rat brain homogenate,,0.0014 ± 0.0005 µM
CCC(NC(=O)C(CC(C)C)NC(=O)CCc1ccc(C#N)cc1)C(=O)C(=O)NCc1cc(OC)cc(OC)c1 (centres unmarked),CAPN1,"enzyme activity, inhibitor, fluorescence",,,0.146 µM
CNC(=O)C1CCN(c2cc(C)c(F)cc2NC(=O)c2ccc(-c3cc(O)ccc3C)c(C)c2)CC1,"EPHA8 (Homo sapiens, UniProt P29322)","cell-free assay, TR-FRET",,,0.0047 µM
CN[C@@H](C)C(=O)N[C@H]1CN(C(=O)Cc2ccccc2)CC[C@H]2CC[C@@H](C(=O)NCc3ccc(Cl)cc3)N2C1=O,XIAP BIR3,"ligand displacement, FP",,,0.87 µM
CCCCCCCC[C@H]1N[C@H](CO)[C@@H](O)[C@H](O)[C@H]1O,GLAA,"enzyme activity, inhibitor",,,12.3 µM
CN[C@@H](C)C(=O)N[C@H]1CN(C(=O)Cc2ccccc2)CC[C@H]2CC[C@@H](C(=O)NCc3ccc(C(C)C)cc3)N2C1=O,"E3 ubiquitin-protein ligase XIAP, BIR3 domain (XIAP, Homo sapiens, UniProt P98170)","binding, fluorescence polarization",,BIR3 domain,38.4 ± 3.9 µM
CCCCNC(=S)N1[C@H](CCC)[C@H](O)[C@@H](O)[C@H](O)[C@H]1CO,GLAA,"enzyme activity, competitive inhibitor",,"optimal pH, together with: p-nitrophenyl glycopyranoside",> 2000 µM
